# Published values collected from several papers.
# Protocols differ between the studies behind these lines. Values joined by “and” are separate records of one study, mostly repeats; a detail may differ. ± gives the spread as reported.
# POLB: DNA polymerase beta (POLB, Homo sapiens, UniProt P06746)
Structure (SMILES),target,assay,system,conditions,scale,endpoint,value
O=C(Nc1cnc2ccccc2n1)c1ccc(-c2ccc(Cl)cc2)o1,"Nuclear receptor subfamily 4 group A member 2, ligand binding domain (Homo sapiens, UniProt P43354)","reporter gene, agonist, Gal4-Nurr1 hybrid reporter",HEK-293T,"3 µM, crude library product",baseline: vehicle (0.1% DMSO),activation,1.77 fold and > 1.5 fold
N#CCc1cccc(Cl)c1-c1ccc2[nH][11c](=O)[nH]c2c1,"Voltage-dependent calcium channel gamma-8 subunit, with AMPA receptor (Rattus norvegicus, UniProt Q8VHW5)",autoradiography,rat hippocampus sections,"concentration not given, together with: JNJ-56022486 1 µM",,reduction of bound radioactivity,> 30%
Oc1c(C(Nc2nccs2)c2ccccc2OCc2ccccc2)ccc2cccnc12 (stereo not shown),"Genome polyprotein, NS2B-NS3 protease (Dengue virus type 2, UniProt P14340)","enzyme activity, inhibitor",,"0.1% CHAPS, together with: Bz-Nle-Lys-Arg-Arg-AMC substrate",,Hill slope,1.18 ± 0.05
Cc1csc(CCCNc2nc3c(c(=O)[nH]2)[n+](C)cn3C2OC(COP(=O)(O)OP(=O)([O-])OP(=O)(O)OCC3OC(n4cnc5c(=O)[nH]c(N)nc54)C(O)C3O)C(O)C2O)n1 (stereo not shown),"Eukaryotic translation initiation factor 4E (Eif4e, Mus musculus, UniProt P63073)",differential scanning fluorimetry,,100 µM,,melting temperature,49.5 °C
Cc1cn([C@H]2C[C@H](O)[C@@H](COP(=O)(O)OP(=O)(O)C(F)(F)P(=O)(O)O)O2)c(=O)[nH]c1=O,POLB,"substrate, single turnover kinetics",,,,kpol/Kd,430000 ± 120000 M⁻¹ s⁻¹
Nc1nc2c(ncn2[C@H]2C[C@H](O)[C@@H](COP(=O)(O)OP(=O)(O)[C@H](Cl)P(=O)(O)O)O2)c(=O)[nH]1,"DNA polymerase beta (POLB, Homo sapiens, UniProt P06746, R183A)","substrate, pre-steady-state kinetics",,incorporation opposite dC in gapped DNA,,kpol,1.5 ± 0.1 s⁻¹
Cc1ccc(Nc2ncc3c(n2)N(C)C(=O)N(c2cc(NC(=O)c4ccc(CN5CCC(N(C)C)C5)c(C(F)(F)F)c4)ccc2C)C3)cn1 (stereo not shown),"FGFR4/Transcription factor ETV6 (Homo sapiens, UniProt P22455+P41212)",cell growth,Ba/F3 expressing TEL-FGFR4,72 h,,GI50,0.028 µM
O=P(O)(O)O[C@@H]1[C@@H](O)[C@H](O)[C@H](O)[C@H](O)[C@H]1OP(=O)(O)O,"Inositol 1,4,5-trisphosphate-gated calcium channel ITPR1 (Itpr1, Rattus norvegicus, UniProt P29994, del318-332/R568Q)",Ca2+ release,"DT40, permeabilized",unit not given,baseline: R568Q over wild type,ΔpEC50,0.21 ± 0.11
CCC(c1nnnn1Cc1cccs1)N1CCN(c2nc3cc(N)cc(F)c3s2)CC1 (stereo not shown),"Deoxyribonuclease-1 (DNASE1, Bos taurus, UniProt P00639)","enzyme activity, inhibitor",,,,inhibition onset concentration,> 23 µM
CC(P(=O)(O)O)P(=O)(O)OP(=O)(O)OCC1OC(n2cnc3c(=O)[nH]c(N)nc32)CC1O (mixture of isomers),POLB,"nucleotide incorporation rate, substrate, single-turnover kinetics",single-nucleotide gapped DNA,"37 °C, wild type, misincorporation, together with: dGTP opposite template A",,kpol,0.0003 ± 4e-05 s⁻¹
COc1ccc(-c2cc(C(F)(F)F)nc(S(=O)(=O)CCCC(=O)Nc3ccc(F)c(Cl)c3)n2)cc1OC,"Secretin receptor (SCTR, Homo sapiens, UniProt P47872)","increase of tracer binding, TR-FRET",HEK293 membranes,together with: Fluo-Sec 6 nM,,Emax,142 ± 5.9%
NC(=O)CCC(=O)N1CCOC(CC(c2ccccc2)c2ccccc2)C1 (stereo not shown),"Troponin C, slow skeletal and cardiac muscles, with cTnI (TNNC1, Human, UniProt P63316, C35S/C84S/T53C)",stopped-flow fluorescence,,"50 µM, IAANS-labelled chimera",,Ca2+ dissociation rate,57.6 ± 0.9 s⁻¹
CC(C)[C@H](NC(=O)[C@H](CCC(=O)O)NC(=O)[C@H](CCC(=O)O)NC(=O)[C@@H]1Cc2ccc(O)cc2CN1C(=O)[C@H](CCC(=O)O)NC(=O)[C@H](CC(=O)O)NC(=O)[C@H](CC(=O)O)NC(=O)[C@H](CCC(=O)O)NC(=O)[C@@H](CCCNC(=N)N)NC(=O)[C@@H](CCCNC(=N)N)NC(=O)[C@@H](CCCNC(=N)N)NC(=O)[C@H](C)N(C)C(=O)[C@H](Cc1ccccc1)NC(=O)[C@@H](NC(=O)[C@H](Cc1ccccc1)NC(=O)[C@H](C)NC(=O)[C@H](CCCNC(=N)N)N(C)C(=O)[C@@H]1CCCN1C(=O)[C@H](CCCNC(=N)N)NC(=O)CNC(=O)c1ccc2c(c1)C1(OC2=O)c2ccc(O)cc2Oc2cc(O)ccc21)[C@@H](C)O)C(N)=O,"Epidermal growth factor receptor (EGFR, Homo sapiens, UniProt P00533)","enzyme activity, substrate",,,,Km,365 µM
BP(=O)(OC[C@H]1O[C@@H](n2cnc3c(=O)[nH]c(N)nc32)[C@H](O)[C@@H]1O)OP(=O)([O-])OP(=O)(O)OC[C@H]1O[C@@H](n2c[n+](C)c3c(O)nc(N)nc32)[C@H](O)[C@@H]1O (stereo partly shown),"Eukaryotic translation initiation factor 4E, residues 28-217 (Eif4e, Mus musculus, UniProt P63073)","cap binding, fluorescence quenching titration",,"pH 7.2, 20 °C",,association constant,14.5 ± 0.2 µM⁻¹
CC[C@H](C)[C@H](NC(=O)[C@H](CO)NC(=O)CNC(=O)[C@H](CCCNC(=N)N)NC(=O)CNC(=O)[C@H](C)NC(=O)CNC(=O)CCCCCNC(=O)CCCC[C@@H]1SC[C@@H]2NC(=O)N[C@@H]21)C(=O)N[C@@H](CC(=O)O)C(=O)N[C@H](C(=O)N[C@@H](Cc1c[nH]c2ccccc12)C(=O)N[C@H](C(=O)O)C(C)C)[C@@H](C)O,"Erbin, PDZ domain (ERBIN, Homo sapiens, UniProt Q96RT1)","PDZ-mNG binding, DNA-PAINT",,together with: 26 nM PDZ-mNG,,mean dark time,102 ± 60 s
Cc1cc(O)c(=O)c(O)cc1C(=O)N1CCN(C(=O)c2cccc3ccccc23)CC1,"Ribonuclease H1 (Homo sapiens, UniProt O60930)","enzyme activity, inhibitor, FRET heteroduplex cleavage",,mixed inhibition model,,Ki (enzyme-substrate complex),2.6 ± 0.5 µM
COc1ccc(-c2cc(C(F)(F)F)nc(S(=O)(=O)NCC(=O)Nc3ccc(C)cc3)n2)cc1,"Bifunctional 3'-5' exonuclease/ATP-dependent helicase WRN (WRN, Homo sapiens, UniProt Q14191)","ATPase activity, ADP-Glo",,,,maximal inhibition,55 to 60%
S=C(Nc1ccc(Cl)cc1)Nc1cccc2[nH]ccc12,"Microtubule-associated protein tau, 0N4R isoform (MAPT, Homo sapiens, UniProt P10636)",PICUP cross-linking,,up to 200 µM,,oligomer formation,no effect
Cc1cn(C2CC(O)C(COP(=O)(O)OP(=O)(O)C(Cl)P(=O)(O)O)O2)c(=O)[nH]c1=O (mixture of isomers),POLB,"substrate, single turnover kinetics",,,,kpol/Kd,190000 ± 50000 M⁻¹ s⁻¹
CNc1ccccc1C(=O)O[C@H]1C[C@H](n2cnc3c(N)ncnc32)O[C@@H]1COP(=O)(O)OP(=O)(O)O,"Unconventional myosin-Va (Gallus gallus, UniProt Q02440, D297C/G292C/I296C/S293C/V295G)",van't Hoff,,"concentration not given, together with: EDTA",,binding entropy,17.1 ± 7.4 cal/(mol·K)
CC[C@H](C)[C@H](NC(=O)[C@H](Cc1c[nH]c2ccccc12)NC(=O)[C@@H](NC(=O)[C@H](CCC(=O)O)NC(=O)[C@@H]1CCCN1C(=O)[C@H](CCCNC(=N)N)NC(C)=O)[C@@H](C)CC)C(=O)N[C@@H](C)C(=O)N[C@@H](CCC(N)=O)C(=O)N[C@@H](CCC(=O)O)C(=O)N[C@@H](CC(C)C)C(=O)N[C@@H](CCCNC(=N)N)C(=O)N[C@@H](CCCNC(=N)N)C(=O)N[C@@H](C)C(=O)NCC(=O)N[C@@H](CCCCN)C(=O)N[C@H](C(=O)N[C@@H](CC(C)C)C(=O)N[C@@H](CC(N)=O)C(=O)N[C@@H](C)C(=O)N[C@@H](Cc1ccc(O)cc1)C(=O)N[C@@H](Cc1ccc(O)cc1)C(=O)N[C@@H](C)C(=O)N[C@@H](CCCNC(=N)N)C(N)=O)C(C)C,"Bcl-2-related protein A1 (Homo sapiens, UniProt Q16548)",fluorescence anisotropy,,"37 °C, together with: excess unlabeled Bim, 1 µM",,dissociation half-life,~5 min
CC(C)(C)CCN1C[C@@H]2[C@@H](CNC(=O)c3cc(Cl)cc(Cl)c3)[C@@H]2C1.Cl,"Voltage-dependent L-type calcium channel subunit alpha-1F, exon 47 deletion isoform (Homo sapiens, UniProt O60840)","calcium current, whole-cell patch clamp",HEK-293T cells,50 nM,,reversal potential,75.9 ± 7.91 mV
